# Published values from different studies.
# Lines come from different studies, so protocols differ. Numbers after ± are the reported error.
SMILES,test,test system,setting,how to read,endpoint,value
CCS(=O)(=O)c1ccccc1C(=O)N1CCN(c2nc3ccc(F)cc3s2)C[C@@H]1C,,"mouse, brain","intravenous, 3 mg/kg",,AUC,404 ± 109 ng·h/mL
Oc1ccc2ccccc2c1/N=N/c1ccccc1,,rat whole blood QC samples,"5.0 µg/L, 12 h, room temperature, short-term stability",,measured concentration,4.94 µg/L
N=C(N)NCCC[C@@H]1NC(=O)[C@H](Cc2c[nH]c3ccccc23)NC(=O)[C@@H](CC2CCCCC2)NC(=O)[C@@H]2CCCN2C(=O)[C@@H](NC(=O)CCc2ccccc2)CCCNC1=O,,"C57BL/6J mouse, plasma","intraperitoneal, 1 mg/kg, single dose",,AUC,2090 ng·h/mL
COc1cc(NC(C)=O)c2c(c1O)-c1c(OC)c(OC)cc3c1C(C2)N(C)CC3 (stereo not shown),,"rat, processed plasma samples","100 µg/mL, 24 h, room temperature, post-preparative storage",,remaining compound,93.6 ± 3.1%
O=C([O-])c1cccc(CN(CCN(Cc2cn(Cc3ccccc3)nn2)Cc2cccc(C(=O)[O-])n2)Cc2cn(Cc3ccccc3)nn2)n1.[111In+3],,mouse serum,"24 h, 25 °C, with: 111In",,radiometal bound to chelator,65%
C[C@@H](C(=O)O)N(CC(=O)N(CCS)CC(N)=O)C(=O)CN(C(=O)CN(C(=O)CN(C(=O)CN(C(=O)CN(C(=O)CN(C(=O)CN(C(=O)CN(C(=O)CN(C(=O)CN(C(=O)CN(C(=O)CNCCS)[C@@H](C)c1ccccc1)[C@@H](C)C(=O)O)[C@@H](C)C(=O)O)[C@@H](C)c1ccccc1)[C@@H](C)C(=O)O)[C@@H](C)C(=O)O)[C@@H](C)c1ccccc1)[C@@H](C)C(=O)O)[C@@H](C)C(=O)O)[C@@H](C)c1ccccc1)[C@@H](C)C(=O)O,,distilled water,,,water solubility,≥ 2300 µM
CCC1CC2C(C)=CC3C(=O)CCCC3C=CC(C)=CC2C(=O)O1 (stereo not shown),metabolic stability,"mouse, liver microsomes","1 µM, 30 min, pH 7.4",,compound remaining,6.15%
Cc1[nH]nc2c1N=C(c1ccccc1Cl)c1cnc(N3CCOCC3)cc1N2,,"human male, urine","oral, 10 mg, 288 h",baseline: dose,urinary radioactivity excretion,< 10%
CN(C)c1cc(CN2CCCCC2)c(O)c2c1C[C@H]1C[C@H]3[C@H](N(C)C)C(O)=C(C(N)=O)C(=O)[C@@]3(O)C(O)=C1C2=O,,"cynomolgus monkey, plasma","intravenous, 5 mg/kg",,half-life,15.1 h
CCCCC1NC(=O)c2ccccc21 (racemic),,"Wistar rat, both sexes, plasma","oral, 10 mg/kg",,absorption half-life,5.6 ± 0.1 min
NC[C@@H](C(=O)Nc1ccc(-c2cn[nH]c2)cc1)c1ccccc1,"OECD 405, measured: Iris",New Zealand White rabbit,"topical, 0.1 %, 32 h, day 2",direction not given,ocular irritation score,0
CCNC(=O)OCc1c(COC(=O)NCC)c(-c2ccc(OC)cc2)n2c1Cc1ccccc1-2,,"BALB/c nude mice, blood","concentration not given, day 10",,blood urea nitrogen,18.6 ± 1.3 mg/dL
O=[11C](OC(C(F)(F)F)C(F)(F)F)N1CCC(CNS(=O)(=O)c2ccc(Cl)cc2)CC1,,"Sprague-Dawley rat, brain homogenate","iv, dose not given, 30 min",,unchanged tracer,53%
Cc1cc2c(cc1C1(c3ncc(C(=O)O)cn3)CC1)C(C)(C)CCC2(C)C,,"Sprague-Dawley rat, male, plasma","oral, 100 mg/kg, 3 h, sesame oil vehicle",,HDL level,59 ± 4.2 mg/dL
CCCC[C@H](NC(=O)CNC(=O)CNC(=O)CN1CCN(CC(=O)O)CCN(CC(=O)O)CC1)C(=O)N[C@H]1CC(=O)NCCCC[C@@H](C(N)=O)NC(=O)[C@H](Cc2c[nH]c3ccccc23)NC(=O)[C@H](CCCNC(=N)N)NC(=O)[C@@H](Cc2ccccc2)NC(=O)[C@H](Cc2c[nH]cn2)NC1=O [copper-64 labelled],,"female C57 mouse, B16/F1 melanoma","intravenous, 0.037 MBq, 2 h",baseline: tumour over kidneys,uptake ratio,2.52
CCC/C(=C\C1=C(F)C(=O)c2ccccc2C1=O)C(=O)N(CC)CC,,mouse plasma,"1 µM, 37 °C",,t1/2,> 165 h

# For quick reference, copied from above:
SMILES,test,test system,setting,how to read,endpoint,value
N=C(N)NCCC[C@@H]1NC(=O)[C@H](Cc2c[nH]c3ccccc23)NC(=O)[C@@H](CC2CCCCC2)NC(=O)[C@@H]2CCCN2C(=O)[C@@H](NC(=O)CCc2ccccc2)CCCNC1=O,,"C57BL/6J mouse, plasma","intraperitoneal, 1 mg/kg, single dose",,AUC,2090 ng·h/mL
CCNC(=O)OCc1c(COC(=O)NCC)c(-c2ccc(OC)cc2)n2c1Cc1ccccc1-2,,"BALB/c nude mice, blood","concentration not given, day 10",,blood urea nitrogen,18.6 ± 1.3 mg/dL
